# Published values pooled from the literature.
# Compare with care: the assays were run in different laboratories. ± gives the spread as reported.
Structure (SMILES),organism,test,system,conditions,how to read,quantity,result
CO/C=C(/C(=O)OC)c1ccccc1Oc1cc(Oc2ccccc2C#N)ncn1,Botryosphaeria dothidea,"fungal growth, inhibitor",,50 µg/mL,,inhibition,70.6 ± 0.9%
Cl.N/C(CC(O)c1cc2c(F)cc(F)cc2c2cc(C(F)(F)F)ccc12)=N\c1ccc(F)cc1 (stereo not shown),Plasmodium berghei,Peters test,"ANKA, mice","oral, 4 x 50 mg/kg",,mean survival time,30 days
CC[C@H](C)[C@H](NC(=O)[C@H](C)NC(=O)[C@H](CCCCN)NC(=O)[C@H](CC(C)C)NC(=O)[C@H](C)NC(=O)[C@@H](NC(=O)[C@H](Cc1c[nH]cn1)NC(=O)[C@H](CC(C)C)NC(=O)[C@@H](NC(=O)[C@@H](NC(=O)[C@H](CCCCN)NC(=O)[C@H](C)NC(=O)[C@H](C)NC(=O)[C@H](CO)NC(=O)[C@H](CCCCN)NC(=O)[C@H](Cc1ccccc1)NC(=O)[C@@H](NC(=O)[C@H](CCCCN)NC(=O)[C@H](CC(C)C)NC(=O)[C@H](Cc1ccccc1)NC(=O)[C@H](CO)NC(=O)[C@H](CCCCN)NC(=O)[C@H](Cc1c[nH]c2ccccc12)NC(=O)[C@H](CCCCN)NC(C)=O)[C@@H](C)O)[C@@H](C)O)C(C)C)[C@@H](C)O)C(=O)N[C@@H](CO)C(=O)N[C@@H](CO)C(N)=O,Acinetobacter baumannii,,ATCC 19606,,,MIC geometric mean,2 µg/mL
CNC(=O)c1cc(Cl)cc(C)c1NC(=O)c1cc(Br)nn1-c1ncccc1Cl,Plutella xylostella,,Raphanus sativus field,"25 ppm, 72 h, 5% water-dispersible granule",,larval survival,8.6%
CS(=O)(=O)CCCn1c(Cn2c(=O)n(CC(F)(F)F)c3ccncc32)cc2cc(Cl)ccc21,respiratory syncytial virus,RT-qPCR,"hospitalized infants 1-24 months, nasal swab","oral, 2, 1.5 or 1 mg/kg daily, day 14, low dose by age cohort",reference: baseline,LS mean viral load change,-3.96 log10 copies/mL
Nc1ccn(C[C@@H](CO)OCP(=O)(O)O)c(=O)n1,human cytomegalovirus,viral cytopathic effect,"HEL, AD-169",,,EC50,0.51 µM
CCCCCC[C@H]1C(=O)O[C@H](C)[C@H](NC(=O)c2cccc(NC=O)c2O)C(=O)O[C@@H](C)[C@@H]1OC(=O)CC(C)C,Drosophila melanogaster,fluorescence,,"liquid food, 40 µg/mL, first instar larvae",reference: solvent,fluorescein ingestion,-30.5%
Cl.N=C(CC(O)c1cc2c(F)cc(F)cc2c2cc(C(F)(F)F)ccc12)Nc1ccc(F)c(F)c1 (stereo not shown),Plasmodium berghei,Peters suppressive test,"ANKA, infected mice","oral, 4 x 3 mg/kg, day 4",reference: untreated control,parasitemia reduction,99.8%
O=S(=O)(F)Cc1ccccc1,Phelipanche ramosa,"seed germination, antagonist",,together with: 2-PEITC 100 nM,,IC50,100 µM
CCCCCC[C@H]1C(=O)O[C@H](C)[C@H](NC(=O)c2cccc(NC=O)c2O)C(=O)O[C@@H](C)[C@@H]1OC(=O)CC(C)C,herpes simplex virus 1,"Western blot, refers to: ICP4, VP16, gD",,concentration not given,,viral protein level,decreased
Cc1ccc(N(c2ccc(NC(=O)CN(C)c3ccccc3N3CCCC3=O)cc2)C(C)C)cc1,Plasmodium falciparum,,Dd2-B2,"27 nM, 60 days",,minimum inoculum of resistance,4e+07 parasites
CS(=O)(=O)OCCN(CCBr)c1c(C(=O)NCCO)cc([N+](=O)[O-])cc1[N+](=O)[O-],Homo sapiens,"cell viability, resazurin or CellTiter-Glo","sample B BCP-ALL PDX cells, ex vivo",,,IC50,37.6 µM
COc1c([N+](=O)[O-])oc2ccc3ccccc3c12,Mycobacterium marinum,REMA,ATCC BAA-535,,,MIC90,2 µg/mL
